Measurements from different studies.
Parts stem from different laboratories: compare values within a part only. Substitutions count along the parent as printed.

Block 1
Substance: PhoQ, residues 284 288 289 292 302 303 TYGVAM
Method: Sort-seq
Refers to: YFP reporter
Matrix: E. coli
Notes: PhoQ-PhoP variant library
Together with: 10 µM Mg2+
Relative to: high Mg2+ state
Direction: higher = stronger signaling
Measurement: fold induction
PhoP, residues 12 14 15 18 19 TQCLL (Escherichia coli, UniProt P23836): 11.1
PhoP, residues 12 14 15 18 19 ICWRQ (Escherichia coli, UniProt P23836): 9.64
PhoP, residues 12 14 15 18 19 VHTVL (Escherichia coli, UniProt P23836): 24.6

Block 2
Target: RNA binding protein fox-1 homolog 2, RRM domain, GST-SBP tag (RBFOX2, Homo sapiens, UniProt O43251-10, residues 100-194)
Method: RNA Bind-n-Seq
Molecule type: RNA
Matrix: in vitro
Concentration: 365 nM
Notes: natural RNA segment, single round, ends assumed
Relative to: no-protein control
Direction: higher = stronger binding
Measurement: RBNS enrichment (R)
Shared flanks, not repeated: GGGAGUUCUACAGUCCGACGAUC … UGGAAUUCUCGGGUGCCAA
Residues (chain): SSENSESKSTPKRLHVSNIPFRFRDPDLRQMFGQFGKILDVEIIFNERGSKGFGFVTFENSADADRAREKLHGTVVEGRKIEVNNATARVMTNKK
CCUCUUUGAGAAAAUGCACAAAGCCCUGGGAGAUGACAAGCACAAGGACUGACUCAAGCUGUGUCUUUCAGACCAAGGAACAUCAGAGAAGCUGUGGGGCUGCCUGCCAG: 1.46
GUCAGUUUUGAGUAUCAUUGGCCCUUUCCAGCACAUGGGUGAGAAAACAGGCCACGACUUGUCACUCAGCACUAACCCCCAGUUCUUGAACAGCCUCCUCCAGCCCUGCU: 0.641
AGGAGAAGUAAAGGCCACGGAAGGUAUGGUAGUUUCUGGAGUCCUAUCUGAGAACUCACAGAUUGUCUUUGCCUCUCUAGGCAGAAACAGAGCUACCCACUGCAGCGGCC: 0.393
AAUACAAAGCAAAUCCUUCCCCAGCUAUGUGUUUUAGCCUUUGAGUAGGGGAGUUUCGGUGUACACAUUGAAUUUUCCACUUAUGUAAAUAAAACGGAUUUUGAUAAAUC: 0.582
GUGUGGUUCAUGCAUUGUCUUUGAUAUCCUAGACGGAGCUCAGCUUAGAACUUUCCAAGCGCCAGUGCACAGCGUUCUAGGGAAUGGUGCUCCUUGGCUGGGUGAGCUGC: 0.568
UAUCUUCUAUGUCUCUGUCAAGGACAGAAGUUGUCAGUUUAAUACACGAGCUCUUGUGUUGAAAGUGUCCAGGCCGUAGAACUUCAUUGCUACUGACUUUACACAGUUUA: 0.673
GCAAAUAGAUCUGUUUCAAAAUAUGUUCCCGCUAUGUGGAUAACUCUUCUUUUUAAAAAGAAAAUAGAGAAUAGCAAAUCUUCAUGAUAAUCCUCAAAAGAACAAAAUGC: 0.465
UUUAGGAACUCACUCUUUAGAUAUUUACAUCCAGCUUCUCAUGUUAAAUAUUUGUCCUUAAAGGGUUUGAGAUGUACAUCUUUCAUUUCGUAUUUCUCAUAGGCUAUGCC: 0.641
UGGCUAUCUUUAAGAAAGAUGAUAUAUCCUAGUUUUGAAAGUAAUUUUCUUUUUUCUUUCUAGCAUUUGAUGUCUAAAUAAUUUUGGACAUCUUUUUCCUAGACCAUGUU: 0.482
UAAAACCAUUAGUAUUUUACUUUGACUCAGUACCUUGGUUUGUCCCAACUGAAUAAGAGUUUGUAUUGUGUGUGUGUUCCUUGAAACCAAUGAUUUUCAAACUUUACAGC: 0.465
AUAUUUUUAAUAUUUGGGGCAUGAGUUGUCCCUGUUUGAGAGUUCCCAUUACUAAUGUAGAAAUGUUAAAUGGUAAAACAUAAUUUGCUAAAAUGACCAGUUUUCAGAUU: 1.34
UAUAAAACUACAACCUGAUCUACCCUCCAGGGCCUCCUCAGUUCCACUGAUUGAAAUUUUCUUCUUCCAUGGACUAAGUCCAUCUAGGAAGGAAAAAUGAGGAGAAAGAG: 0.258

Block 3
Target: ABI1, truncated, D143A, DHFR fusion (Arabidopsis thaliana)
Method: DHFR PCA, deep sequencing
Matrix: yeast
Notes: methotrexate growth selection, single substitutions
Together with: (+)-ABA 200 µM
Relative to: wild-type fitted maximum
Direction: higher = stronger binding
Measurement: relative binding score
Parent: PYL1, truncated, DHFR fusion (Arabidopsis thaliana); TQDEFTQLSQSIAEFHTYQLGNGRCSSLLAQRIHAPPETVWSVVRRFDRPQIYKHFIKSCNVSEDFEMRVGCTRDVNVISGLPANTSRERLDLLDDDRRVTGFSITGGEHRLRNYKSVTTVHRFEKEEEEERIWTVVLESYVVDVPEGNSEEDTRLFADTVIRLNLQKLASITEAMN
R46D: 68.4%
R123T: 109%
S59T: 99.1%
W134T: 103%
L156P: -4.32%
R90T: 90.6%
F47S: 4.36%
V136Y: 92.6%
L82Y: 34%
I33R: -1.89%
I162G: 7.17%
V43N: 41.3%
V121F: 7.47%
I162F: -5.37%
C25P: 26%

Block 4
Target: CREBZF, bZIP domain (human)
Method: DHFR protein complementation
Matrix: yeast
Notes: single substitutions, most at no-binding floor
Relative to: wild-type JUN-FOS pair
Direction: higher = stronger binding
Measurement: binding fitness
Parent: JUN, bZIP domain (human); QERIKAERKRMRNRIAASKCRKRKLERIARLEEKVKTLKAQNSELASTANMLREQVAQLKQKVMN; partner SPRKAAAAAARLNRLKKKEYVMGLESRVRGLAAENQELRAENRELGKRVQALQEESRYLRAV
L59S: -1.44 natural log
L38C: -1.54 natural log
A46C: -1.38 natural log
M51N: -1.43 natural log
R53A: -1.52 natural log
L38A: -1.57 natural log
A57S: -1.46 natural log
T48M: -1.5 natural log
T37D: -1.46 natural log
L59H: -1.54 natural log
Q41M: -1.45 natural log
N42I: -1.5 natural log
